{"data": "Assay results of several laboratories", "note": "Every numbered part comes from another study and shows a few of its results, in no order."}
{"data": "Block 1", "target": "Protein C-ets-1 (ETS1, Homo sapiens, UniProt P14921, residues 1-441, full length assumed)", "method": "protein-binding microarray", "molecule type": "double-stranded DNA, one strand shown", "medium": "in vitro", "tested at": "not given", "setting": "k-mer, scored over probes, only values ≥0.25", "reading": "higher = stronger binding", "UniProt P14921, sequence (whole entry, looked up)": "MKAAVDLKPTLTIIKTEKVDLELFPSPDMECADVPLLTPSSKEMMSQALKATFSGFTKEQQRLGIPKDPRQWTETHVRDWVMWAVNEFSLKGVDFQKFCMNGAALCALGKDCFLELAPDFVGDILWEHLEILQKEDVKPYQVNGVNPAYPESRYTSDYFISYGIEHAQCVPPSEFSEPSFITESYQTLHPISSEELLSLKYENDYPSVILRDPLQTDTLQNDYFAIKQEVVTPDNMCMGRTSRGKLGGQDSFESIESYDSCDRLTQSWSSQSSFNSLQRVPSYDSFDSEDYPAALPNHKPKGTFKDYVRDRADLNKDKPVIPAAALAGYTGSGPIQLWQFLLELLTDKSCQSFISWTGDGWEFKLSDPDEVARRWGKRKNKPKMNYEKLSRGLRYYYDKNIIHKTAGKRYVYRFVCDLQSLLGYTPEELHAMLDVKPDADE"}
{"Strand": "GGAACGGA", "E-score": 0.316}
{"Strand": "CAACAGGA", "E-score": 0.403}
{"Strand": "AGGAAAAG", "E-score": 0.257}
{"data": "Block 2", "target": "Sal-like protein 4, full length isoform A (SALL4, Homo sapiens, UniProt Q9UJQ4, residues 1-1053)", "method": "universal PBM", "molecule type": "double-stranded DNA, one strand shown", "medium": "in vitro", "tested at": "600 nM", "setting": "8-mer, flanks averaged, mean of replicates", "reading": "higher = stronger binding", "UniProt Q9UJQ4, sequence (whole entry, looked up)": "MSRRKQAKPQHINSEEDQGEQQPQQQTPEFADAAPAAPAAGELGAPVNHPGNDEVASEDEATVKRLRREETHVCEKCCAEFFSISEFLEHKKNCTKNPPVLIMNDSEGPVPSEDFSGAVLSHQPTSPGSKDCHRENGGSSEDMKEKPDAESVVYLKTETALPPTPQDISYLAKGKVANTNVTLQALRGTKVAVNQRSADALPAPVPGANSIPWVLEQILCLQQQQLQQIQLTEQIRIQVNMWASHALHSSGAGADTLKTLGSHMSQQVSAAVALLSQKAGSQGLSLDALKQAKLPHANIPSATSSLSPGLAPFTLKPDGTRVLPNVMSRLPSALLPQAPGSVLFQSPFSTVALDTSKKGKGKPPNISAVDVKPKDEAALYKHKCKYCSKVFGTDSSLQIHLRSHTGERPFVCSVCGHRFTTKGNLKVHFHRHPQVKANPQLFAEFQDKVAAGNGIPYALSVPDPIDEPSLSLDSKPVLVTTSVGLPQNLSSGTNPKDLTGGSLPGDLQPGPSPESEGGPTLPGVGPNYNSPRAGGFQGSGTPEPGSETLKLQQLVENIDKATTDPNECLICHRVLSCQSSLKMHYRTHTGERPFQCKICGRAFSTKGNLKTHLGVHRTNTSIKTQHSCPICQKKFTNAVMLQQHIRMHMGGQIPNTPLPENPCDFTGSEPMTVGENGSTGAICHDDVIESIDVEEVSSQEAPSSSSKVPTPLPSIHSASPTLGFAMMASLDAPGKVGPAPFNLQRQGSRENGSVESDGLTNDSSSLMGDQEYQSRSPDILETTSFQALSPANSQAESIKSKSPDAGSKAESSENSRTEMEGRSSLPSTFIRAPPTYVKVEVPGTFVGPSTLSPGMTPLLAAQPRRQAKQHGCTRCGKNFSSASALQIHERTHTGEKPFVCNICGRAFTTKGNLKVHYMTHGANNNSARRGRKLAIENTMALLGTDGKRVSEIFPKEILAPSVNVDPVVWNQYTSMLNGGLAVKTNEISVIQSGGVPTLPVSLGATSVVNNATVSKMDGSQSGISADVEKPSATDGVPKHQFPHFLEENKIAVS"}
{"Strand": "ATAAGCAC", "E-score": 0.124}
{"Strand": "ACAATTCT", "E-score": 0.168}
{"Strand": "CCCCCGCG", "E-score": -0.357}
{"Strand": "ATATGCTC", "E-score": 0.144}
{"data": "Block 3", "target": "Histone acetyltransferase KAT6A, both winged helices, GST fusion (KAT6A, Homo sapiens, UniProt Q92794, residues 1-181)", "method": "protein binding microarray", "molecule type": "double-stranded DNA, one strand shown", "medium": "in vitro", "tested at": "not given", "setting": "8-mer, flanks averaged, mean of 2 arrays, mostly near background", "reference": "not given", "reading": "higher = stronger binding", "Residues (chain)": "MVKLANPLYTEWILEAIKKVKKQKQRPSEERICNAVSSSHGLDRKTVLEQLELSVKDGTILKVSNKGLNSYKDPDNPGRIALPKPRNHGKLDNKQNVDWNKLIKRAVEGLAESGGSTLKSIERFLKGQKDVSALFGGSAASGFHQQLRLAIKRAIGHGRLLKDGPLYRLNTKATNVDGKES"}
{"Strand": "AAGGGCCG", "E-score": 0.0354}
{"Strand": "CACTGAGA", "E-score": -0.0775}
{"Strand": "CAGCTGGA", "E-score": -0.18}
{"Strand": "CCTCAAGA", "E-score": -0.128}
{"data": "Other studies, line by line"}
{"Substance": "PhoQ, residues 284 288 289 292 302 303 AEGLLW", "target": "PhoP, residues 12 14 15 18 19 LHSVW (Escherichia coli, UniProt P23836)", "assay": "Sort-seq, refers to: YFP reporter", "test system": "E. coli", "conditions": "PhoQ-PhoP variant library, with: 10 µM Mg2+", "how to read": "reference: high Mg2+ state, higher = stronger signaling", "quantity": "fold induction", "result": 1.61}
{"note": "Repeated from above (block 3):"}
{"Strand": "CAGCTGGA", "E-score": -0.18}
